Results from different studies.
Numbered parts are unrelated; each lists some results of a single study.

Block 1 — method: competition protein-binding microarray; form: double-stranded DNA, one strand shown; medium: in vitro; concentration: 2 µM; together with: Pho4 competitor, 0.05 µM; reading: higher = stronger binding
Target: Centromere-binding protein 1, full length, His-tagged (CBF1, Saccharomyces cerevisiae, UniProt P17106, residues 1-351)
UniProt P17106, sequence (whole entry, looked up): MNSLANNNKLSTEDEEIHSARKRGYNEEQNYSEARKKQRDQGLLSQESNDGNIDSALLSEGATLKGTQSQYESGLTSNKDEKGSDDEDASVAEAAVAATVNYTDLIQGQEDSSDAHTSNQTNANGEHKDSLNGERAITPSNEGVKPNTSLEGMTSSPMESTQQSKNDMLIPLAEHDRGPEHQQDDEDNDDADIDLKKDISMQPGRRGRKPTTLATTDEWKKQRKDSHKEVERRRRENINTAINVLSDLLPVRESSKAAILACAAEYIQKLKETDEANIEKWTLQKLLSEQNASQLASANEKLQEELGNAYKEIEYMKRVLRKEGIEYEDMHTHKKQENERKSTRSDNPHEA
Setting: whole 60-bp probe, lowest competitor level
Sequence | fluorescence intensity [a.u.]
TCAAGAAAAATTCATCACCTGACTGCAAAATAAAGCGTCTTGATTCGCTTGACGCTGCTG | 2440
CATACCCCTCAGTTCCACGGGGTAAAAAAAAAACTTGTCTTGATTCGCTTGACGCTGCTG | 115
CGGGGTTAAGTTTGGGCGGTGGGTGGCTTGCAGCAGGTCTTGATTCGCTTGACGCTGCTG | 74.5
TGGGGCCCGCCGTCCAACGTGCGGATACCGTACCCTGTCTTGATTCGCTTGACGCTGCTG | 46.1
GCTGTCTCCCTGCGACATGTGTACAGGTGCCATCATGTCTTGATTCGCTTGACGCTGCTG | 97
CATACCCAACCTTGCCTCGTGGGTGAAGATATTTGTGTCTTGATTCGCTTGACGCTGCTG | 99.7
TCCACACACCGTTCACACGTGCTTTATTTCTTTTTCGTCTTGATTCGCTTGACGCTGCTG | 1140
TGCGCAACAACTTGCCTCGTGGGTGTATGTCTAGAAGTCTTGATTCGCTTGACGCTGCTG | 66.7
CGTCCTAGTGATTTTCACGTGATCTCCATGAGGAAGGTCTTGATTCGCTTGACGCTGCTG | 5860
AAATTACTAAGTTGTGGGGTGGGTGACGCCGTATGAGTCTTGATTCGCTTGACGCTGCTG | 83.1
AGGAAGCTGATAAGCAACGTGGTGATGAACAGTATGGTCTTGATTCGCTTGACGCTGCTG | 92.2
AAAGCGGTAATTTCGCACGTGTTTTCACATATCTATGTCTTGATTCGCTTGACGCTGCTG | 1520
ATTTCCGGGACGAGTCACGCTGTTATCAATGACTTTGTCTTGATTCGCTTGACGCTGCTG | 294
TGCATTCTGAAGTTACACGTCACTAACCAGCACTATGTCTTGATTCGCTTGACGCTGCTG | 83.5
AAAGCGGTAATTTGTCCCGTGGGTGCAGATATCTATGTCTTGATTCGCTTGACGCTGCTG | 108
AAGTTCATATATTTGCACGTGCTGTTAGCTCTTTTCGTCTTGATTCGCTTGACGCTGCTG | 2310
CATACCCAACCTTGTTCCGTGGGTGAAGATATTTGTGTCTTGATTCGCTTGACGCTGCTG | 69.5
TTACATGTAGGTAGCTTCGTGCCAGAACGCAAGGGTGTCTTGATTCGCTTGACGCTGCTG | 72
GTTTCAAAAACCGGCCACGTACCCAAAGGTCGCCCGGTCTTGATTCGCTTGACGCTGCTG | 52.7

Block 2 — method: universal PBM; form: double-stranded DNA, one strand shown; medium: in vitro; concentration: 600 nM; reading: higher = stronger binding
Target: Sal-like protein 4, full length isoform A (SALL4, Homo sapiens, UniProt Q9UJQ4, residues 1-1053)
UniProt Q9UJQ4, sequence (whole entry, looked up): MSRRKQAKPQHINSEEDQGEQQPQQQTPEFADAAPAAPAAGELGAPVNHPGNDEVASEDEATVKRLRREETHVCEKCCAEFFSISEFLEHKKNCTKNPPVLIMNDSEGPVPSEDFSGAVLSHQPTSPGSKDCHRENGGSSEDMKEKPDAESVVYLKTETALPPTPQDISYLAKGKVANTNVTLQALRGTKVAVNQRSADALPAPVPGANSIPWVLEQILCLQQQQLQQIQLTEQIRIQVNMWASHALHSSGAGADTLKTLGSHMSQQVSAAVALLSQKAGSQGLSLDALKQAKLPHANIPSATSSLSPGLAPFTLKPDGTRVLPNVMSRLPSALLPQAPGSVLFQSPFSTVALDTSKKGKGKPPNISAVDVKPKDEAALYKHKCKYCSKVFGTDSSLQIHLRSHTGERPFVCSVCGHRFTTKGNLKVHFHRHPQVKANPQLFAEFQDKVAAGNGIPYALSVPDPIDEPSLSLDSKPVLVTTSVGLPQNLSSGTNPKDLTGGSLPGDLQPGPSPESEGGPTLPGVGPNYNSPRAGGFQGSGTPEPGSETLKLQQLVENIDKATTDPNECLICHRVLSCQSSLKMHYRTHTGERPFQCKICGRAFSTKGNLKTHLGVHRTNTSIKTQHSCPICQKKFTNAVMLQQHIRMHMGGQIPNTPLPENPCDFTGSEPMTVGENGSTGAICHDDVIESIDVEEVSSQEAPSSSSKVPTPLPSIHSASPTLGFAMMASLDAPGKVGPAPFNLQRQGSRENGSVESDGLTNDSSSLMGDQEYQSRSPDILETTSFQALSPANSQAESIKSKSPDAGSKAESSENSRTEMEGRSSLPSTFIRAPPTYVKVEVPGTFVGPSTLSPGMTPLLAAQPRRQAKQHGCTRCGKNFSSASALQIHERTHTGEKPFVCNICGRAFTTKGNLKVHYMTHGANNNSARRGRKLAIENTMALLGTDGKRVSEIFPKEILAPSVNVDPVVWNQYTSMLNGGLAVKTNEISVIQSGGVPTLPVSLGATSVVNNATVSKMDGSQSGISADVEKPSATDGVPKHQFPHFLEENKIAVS
Setting: 8-mer, flanks averaged, mean of replicates
Sequence | E-score
GTCATGGA | 0.0221
CGCCATCC | -0.193
ATGTCGGC | -0.156
GGCCTGCA | -0.365
AAAATTAA | 0.366
CCCGCAGG | -0.43
CCCATCAG | -0.289
CGGTTCGA | -0.135
CCTCGAAC | -0.197
AGGATCCG | -0.333
CGAAACAC | 0.0669
CTATTCGA | 0.108
AGTTAGCC | -0.0723
ATTACATG | 0.318
CTGACCAC | -0.187
AAACCAAA | 0.19
GCAGAGGA | -0.133

Block 3 — method: protein-binding microarray; form: double-stranded DNA, one strand shown; medium: in vitro; concentration: 250 nM; setting: 60-bp whole probe; together with: salmon DNA 0.4 mg/ml; relative to: random background probes; reading: higher = stronger binding; shared flanks, not repeated: GCCTAGCAC … GTCTTGATTCGCTTGACGCTGCTG
Target: Interferon regulatory factor 5, full length, phosphomimetic (IRF5, Homo sapiens, UniProt Q13568-2, residues 1-514, K96S/S451D/S453D/S456D/S462D)
Sequence | log fluorescence [z-score]
GAAGGACTGCTTATCCTGACGTGCTAG | -0.18
TTAGGAGTGCTTCTCCTTTAGTGCTAG | -0.632
TCATTTGTCATCTATAATACTGTGCTA | 0.987
GGCGGTCTCCTTTTCCTGACGTGCTAG | -0.421
GGCGATCTCAGTTTCGAGACGTGCTAG | 4.68
TCAGATCTCAGTCTCGATTAGTGCTAG | 0.62
CTAGGTTTCGGGTATCGGTTAGTGCTA | 9.28
TCAGATTTACAAACTGTGACTGTGCTA | 0.288
GACGGAATGGGGTATCGGGACGTGCTA | 0.282
GACGAACGGGGGTTTCGAGACGTGCTA | 2.08
GACGCACTGCTTATCCTGACGTGCTAG | -0.232

Single results of other studies
Molecule | target | assay | system | conditions | scale | endpoint | result
PhoQ, residues 284 288 289 292 302 303 NLALSC | PhoP, residues 12 14 15 18 19 SFCSL (Escherichia coli, UniProt P23836) | Sort-seq, item: YFP reporter | E. coli | PhoQ-PhoP variant library, together with: 10 µM Mg2+ | relative to: high Mg2+ state, higher = stronger signaling | fold induction | 2.18

For quick reference, copied from above (block 2):
Sequence | E-score
CTATTCGA | 0.108
AGTTAGCC | -0.0723
ATTACATG | 0.318
CTGACCAC | -0.187
AAACCAAA | 0.19
GCAGAGGA | -0.133
